{"data": "Results of several laboratories", "LRRK2 G2019S": "Leucine-rich repeat serine/threonine-protein kinase 2 (LRRK2, Homo sapiens, UniProt Q5S007, G2019S)", "LRRK2": "Leucine-rich repeat serine/threonine-protein kinase 2 (LRRK2, Homo sapiens, UniProt Q5S007)", "note": "Lines come from different studies, so protocols differ. “And” joins repeats or separate records; there may be more than shown."}
{"Structure (SMILES)": "C=CC(=O)Nc1cccc(-c2cnc3[nH]cc(C(=O)NC(C)(C)C)c3n2)c1", "target": "LRRK2 G2019S", "test": "kinase activity", "setting": "0.1 µM", "quantity": "inhibition", "value": "63% and 62%"}
{"Structure (SMILES)": "Nc1ncc2c(n1)-c1c([nH]c3ccc(C4=CCOCC4)cc13)CCC2", "target": "LRRK2", "test": "binding, competition with immobilised ligand", "setting": "1 µM", "quantity": "remaining binding", "value": "80%"}
{"Structure (SMILES)": "CNC(=O)C[C@H](Cc1ccc(C#N)cc1)NC(=O)c1cc(-c2ccc(CN[C@H](C)c3ccc(C)cc3)o2)ccc1Cl", "target": "LRRK2", "test": "enzyme activity, inhibitor", "setting": "1 µM", "quantity": "activity vs control", "value": "90%"}
{"Structure (SMILES)": "CNC(=O)C1CCN(c2cc(C)c(F)cc2NC(=O)c2ccc(-c3cc(O)ccc3C)c(C)c2)CC1", "target": "LRRK2", "test": "binding, competition with immobilised ligand", "setting": "1 µM", "quantity": "remaining binding", "value": "100%"}
{"Structure (SMILES)": "COc1c(Cl)cccc1Nc1c(-c2ccncc2C#C[C@@]2(C)CCCN2C(=O)/C=C/CN(C)C)[nH]c2c1C(=O)NCC2", "target": "LRRK2", "test": "binding, competition with immobilised ligand", "setting": "3 µM", "quantity": "remaining binding", "value": "86%"}
{"Structure (SMILES)": "C[C@]1(O)CCCN(c2nc(Nc3ccc(S(=O)(=O)N[C@H]4CC[C@H](CN5CCN(c6ccc(C7CCC(=O)NC7=O)cc6F)CC5)CC4)cc3)ncc2C(F)(F)F)C1 (stereo partly shown)", "target": "LRRK2", "test": "binding, competition with immobilised ligand", "setting": "1 µM", "quantity": "remaining binding", "value": "45%"}
{"Structure (SMILES)": "NC(=O)C[C@H]1CCc2sc3ncnc(O[C@H]4CC[C@H](N5CCOCC5)CC4)c3c21", "target": "LRRK2", "test": "enzyme activity, inhibitor", "setting": "10 µM", "quantity": "inhibition", "value": "6%"}
{"Structure (SMILES)": "C=CC(=O)N1CCc2ccc(-n3c(=O)ccc4cnc5ccc(-c6cnn(C)c6)cc5c43)cc21", "target": "LRRK2 G2019S", "test": "KINOMEscan", "setting": "1 µM", "how to read": "baseline: DMSO control", "quantity": "remaining binding", "value": "95%"}
{"Structure (SMILES)": "Nc1ncc(-c2cc(-c3cnn(CC(F)(F)F)c3)ncc2F)nc1C(=O)NC1CNCC(F)C1 (stereo not shown)", "target": "LRRK2", "test": "enzyme activity", "setting": "1 µM", "how to read": "baseline: DMSO control", "quantity": "remaining activity", "value": "72.9%"}
{"Structure (SMILES)": "O=C(Cc1ccc(OCc2ccccc2)cc1)NC1(C(=O)O)CCN(C(=O)c2ccc(-c3cccc(Cl)c3)cc2)CC1", "target": "LRRK2", "test": "enzyme activity, inhibitor", "setting": "10 µM", "quantity": "activity vs control", "value": "102%"}
{"Structure (SMILES)": "CC(C)=CC1OC(C)(C)C2C=C3C(=O)C(Cl)=CC(O)C3C3C(O)C4OC4C(=O)C132 (stereo not shown)", "target": "LRRK2", "test": "cell-free assay, competition with immobilised ligand", "setting": "10 µM", "quantity": "remaining binding", "value": "64%"}
{"Structure (SMILES)": "Cc1cccc(O[C@H]2CCC[C@@H](C(C)CNCc3ccncc3)C2)c1 (relative stereo)", "target": "LRRK2 G2019S", "test": "enzyme activity, inhibitor", "setting": "10 µM", "quantity": "inhibition", "value": "-3%"}
{"Structure (SMILES)": "CNC1C[S+]2CC[S+]3CC[S+](C1)[Ru-4]321([N]=C=S)[n]2c3ccc(OC)cc3c3c4c(c5cc(F)c[n+]1c5c32)C(=O)NC4=O (stereo not shown)", "target": "LRRK2", "test": "KinomeScan", "setting": "0.1 µM", "how to read": "baseline: untreated", "quantity": "remaining binding", "value": "85%"}
{"note": "A few entries again:"}
{"Structure (SMILES)": "C[C@]1(O)CCCN(c2nc(Nc3ccc(S(=O)(=O)N[C@H]4CC[C@H](CN5CCN(c6ccc(C7CCC(=O)NC7=O)cc6F)CC5)CC4)cc3)ncc2C(F)(F)F)C1 (stereo partly shown)", "target": "LRRK2", "test": "binding, competition with immobilised ligand", "setting": "1 µM", "quantity": "remaining binding", "value": "45%"}
